{"sequences": {"note": "The chains behind the UniProt entries cited, without tags or fusion partners. Residues count along the entry.", "UniProt P41146, whole entry": "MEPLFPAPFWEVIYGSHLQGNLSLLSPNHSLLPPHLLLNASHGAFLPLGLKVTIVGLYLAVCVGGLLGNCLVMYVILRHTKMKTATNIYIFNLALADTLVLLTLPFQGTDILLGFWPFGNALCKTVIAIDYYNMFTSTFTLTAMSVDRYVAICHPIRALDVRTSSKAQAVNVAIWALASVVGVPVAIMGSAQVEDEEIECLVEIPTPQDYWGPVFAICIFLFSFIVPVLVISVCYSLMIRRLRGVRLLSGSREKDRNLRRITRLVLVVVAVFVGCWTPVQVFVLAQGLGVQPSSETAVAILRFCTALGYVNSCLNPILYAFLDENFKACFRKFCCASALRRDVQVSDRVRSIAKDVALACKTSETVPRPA", "UniProt P37136, 32-574 limits assumed": "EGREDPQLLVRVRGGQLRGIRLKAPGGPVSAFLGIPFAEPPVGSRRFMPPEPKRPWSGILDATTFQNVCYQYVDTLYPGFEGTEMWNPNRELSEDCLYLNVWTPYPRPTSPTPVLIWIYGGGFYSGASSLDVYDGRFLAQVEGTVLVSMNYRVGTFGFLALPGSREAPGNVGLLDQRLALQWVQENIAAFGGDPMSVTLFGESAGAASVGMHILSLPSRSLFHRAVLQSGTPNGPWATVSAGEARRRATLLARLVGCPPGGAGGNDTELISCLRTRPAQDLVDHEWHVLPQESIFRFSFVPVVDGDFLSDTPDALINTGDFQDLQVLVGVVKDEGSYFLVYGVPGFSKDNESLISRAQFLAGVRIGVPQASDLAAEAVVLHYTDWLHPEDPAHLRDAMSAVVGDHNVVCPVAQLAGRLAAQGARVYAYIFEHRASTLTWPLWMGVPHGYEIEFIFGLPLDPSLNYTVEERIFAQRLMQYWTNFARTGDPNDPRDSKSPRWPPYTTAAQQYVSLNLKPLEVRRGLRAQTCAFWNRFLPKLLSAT", "UniProt P63096, 2-354 partner limits assumed": "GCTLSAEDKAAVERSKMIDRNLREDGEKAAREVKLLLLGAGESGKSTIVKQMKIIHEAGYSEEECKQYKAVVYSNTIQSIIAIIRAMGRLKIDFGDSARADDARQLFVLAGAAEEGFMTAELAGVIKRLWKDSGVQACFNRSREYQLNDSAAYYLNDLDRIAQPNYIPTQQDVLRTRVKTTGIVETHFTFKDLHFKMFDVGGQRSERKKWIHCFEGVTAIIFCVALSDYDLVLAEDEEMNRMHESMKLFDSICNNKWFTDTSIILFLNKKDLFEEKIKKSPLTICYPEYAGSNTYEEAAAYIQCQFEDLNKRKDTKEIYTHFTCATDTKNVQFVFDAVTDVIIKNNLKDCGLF", "UniProt P59768, 2-68 partner limits assumed": "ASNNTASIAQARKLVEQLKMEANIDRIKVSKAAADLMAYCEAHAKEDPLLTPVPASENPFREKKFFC", "UniProt P62873, whole entry partner": "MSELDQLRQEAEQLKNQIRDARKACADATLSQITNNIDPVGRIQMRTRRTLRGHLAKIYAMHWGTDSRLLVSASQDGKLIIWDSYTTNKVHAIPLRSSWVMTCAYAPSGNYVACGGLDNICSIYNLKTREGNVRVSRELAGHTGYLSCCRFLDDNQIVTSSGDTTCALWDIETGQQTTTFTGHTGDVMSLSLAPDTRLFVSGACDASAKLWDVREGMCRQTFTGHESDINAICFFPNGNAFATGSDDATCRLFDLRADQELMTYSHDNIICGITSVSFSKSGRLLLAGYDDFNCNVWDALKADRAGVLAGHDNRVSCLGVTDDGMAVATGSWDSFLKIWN"}, "data": "Measurements gathered from unrelated publications", "OPRL1": "Nociceptin receptor (OPRL1, Homo sapiens, UniProt P41146)", "note": "Each line is one published result; not all experiments were run side by side. ± gives the spread as reported."}
{"Structure (SMILES)": "CCOP(=O)(OCC)ON1C(=O)c2cccc3cccc(c23)C1=O", "tested on": "Ache (Rattus norvegicus, UniProt P37136)", "assay": "enzyme activity, inhibitor, discontinuous Ellman", "test system": "rat, postnatal day 12, rat lung homogenate", "setting": "15 min, 37 °C", "endpoint": "IC50", "value": "30 nM"}
{"Structure (SMILES)": "O=C(NC1CCN(c2ncnc3[nH]cnc23)CC1)c1cccc(NS(=O)(=O)c2ccc(Cl)cc2)c1", "tested on": "SARS-CoV-2", "assay": "viral infection", "test system": "Wuhan-Hu-1", "endpoint": "IC50", "value": "1370 nM"}
{"Structure (SMILES)": "CNC(=O)CC1C(=O)N(C2CCN([C@H]3CC[C@@H](C(C)C)CC3)CC2)c2ccccc21 (some centres unmarked)", "tested on": "OPRL1", "assay": "G protein interaction, BRET", "test system": "HEK293 membranes", "how to read": "relative to: N/OFQ", "endpoint": "fold lower potency", "value": "4 fold"}
{"Structure (SMILES)": "NS(=O)(=O)c1ccc(-c2cn(-c3ccc(C(=O)C=C(O)C(=O)O)cc3)nn2)cc1", "tested on": "SARS-CoV-2", "assay": "viral replication", "test system": "VeroE6-TMPRSS2", "endpoint": "EC50", "value": "23000 ± 3700 nM"}
{"Structure (SMILES)": "O=C1Cc2ccccc2N1C1CCN([C@@H]2CC[C@H]3CCCc4cccc2c43)CC1", "tested on": "OPRL1", "assay": "G protein activation, GTPγS binding", "test system": "CHO membranes", "setting": "concentration not given, unit not given", "how to read": "relative to: compound over N/OFQ Emax", "endpoint": "intrinsic activity", "value": 0.95}
{"Structure (SMILES)": "CC[C@H](C)[C@H](NC(=O)[C@H](C)NC(=O)[C@H](CCC(=O)O)NC(=O)[C@H](CCC(=O)O)NC(=O)[C@H](CC(C)C)NC(=O)[C@H](CCCCN)NC(=O)[C@H](CCCCN)NC(=O)[C@H](CCSC)NC(=O)[C@H](CCC(=O)O)NC(=O)[C@H](Cc1ccc(O)cc1)NC(=O)[C@H](CCC(=O)O)NC(=O)[C@H](CC(C)C)NC(=O)[C@H](CC(=O)O)NC(=O)[C@H](CC(C)C)NC(=O)[C@H](Cc1ccccc1)NC(=O)[C@H](Cc1ccccc1)NC(=O)[C@@H](NC(=O)[C@H](CC(N)=O)NC(=O)[C@@H](NC(=O)[C@H](CCC(N)=O)NC(=O)[C@H](CC(=O)O)NC(=O)[C@H](CC(C)C)NC(=O)[C@@H](N)CO)[C@@H](C)CC)C(C)C)C(=O)N[C@@H](CCCCN)C(=O)N[C@@H](CCCCN)C(=O)N[C@@H](CC(C)C)C(=O)N[C@@H](CCC(=O)O)C(=O)N[C@@H](CCC(=O)O)C(=O)N[C@@H](CO)C(=O)N[C@@H](Cc1ccc(O)cc1)C(=O)N[C@H](C(=O)N[C@@H](CC(=O)O)C(=O)N[C@@H](CC(C)C)C(=O)N[C@@H](CCCCN)C(=O)N[C@@H](CCC(=O)O)C(=O)N[C@@H](CC(C)C)C(=O)O)[C@@H](C)CC", "tested on": "SARS-CoV-2 JN.1 pseudovirus", "assay": "pseudovirus infection, inhibitor, luciferase", "test system": "Caco-2", "setting": "24 h", "endpoint": "IC50", "value": "41.8 nM"}
{"Structure (SMILES)": "O=C(c1cccs1)N1CCCC2(C1)Nc1ccccc1N=C2NC1CCCC1 (centres unmarked)", "tested on": "HepG2", "assay": "cell viability, CellTiter-Glo", "setting": "72 h", "endpoint": "CC50", "value": "39000 nM"}
{"Structure (SMILES)": "O=C(NCc1ccccc1)C1C(=O)N(O)C(=O)c2cc([N+](=O)[O-])ccc21 (centres unmarked)", "tested on": "Lymphocytic choriomeningitis mammarenavirus", "assay": "minigenome reporter gene", "setting": "100 µM", "how to read": "relative to: DMSO", "endpoint": "remaining activity", "value": "81.6%"}
{"Structure (SMILES)": "O=C(NC1CCN(c2ncnc3[nH]cnc23)CC1)c1cccc(S(=O)(=O)Nc2ccc(Cl)cc2)c1", "tested on": "SARS-CoV-2", "test system": "Wuhan-Hu-1", "setting": "0.09145 µM", "how to read": "relative to: untreated infected cells", "endpoint": "relative infection", "value": "70.7%"}
{"Structure (SMILES)": "CCOc1ccccc1-c1cc(C(=O)NC/C=C/S(C)(=O)=O)nn1COC", "tested on": "Chikungunya virus", "assay": "viral replication, nanoluciferase reporter", "test system": "181/25-nLuc-Capsid", "endpoint": "EC50", "value": "3000 nM"}
{"Structure (SMILES)": "CC[C@H](C)[C@H](NC(=O)[C@H](C)NC(=O)[C@H](CCC(=O)O)NC(=O)[C@H](CCC(=O)O)NC(=O)[C@H](CC(C)C)NC(=O)[C@H](CCCCN)NC(=O)[C@H](CCCCN)NC(=O)[C@H](CCSC)NC(=O)[C@H](CCC(=O)O)NC(=O)[C@H](Cc1ccc(O)cc1)NC(=O)[C@H](CCC(=O)O)NC(=O)[C@H](CC(C)C)NC(=O)[C@H](CC(=O)O)NC(=O)[C@H](CC(C)C)NC(=O)[C@H](Cc1ccccc1)NC(=O)[C@@H](NC(=O)[C@@H](NC(=O)[C@H](CC(N)=O)NC(=O)[C@@H](NC(=O)[C@H](CCC(N)=O)NC(=O)[C@H](CC(=O)O)NC(=O)[C@H](CC(C)C)NC(=O)[C@@H](N)CO)[C@@H](C)CC)C(C)C)[C@@H](C)O)C(=O)N[C@@H](CCCCN)C(=O)N[C@@H](CCCCN)C(=O)N[C@@H](CC(C)C)C(=O)N[C@@H](CCC(=O)O)C(=O)N[C@@H](CCC(=O)O)C(=O)N[C@@H](CO)C(=O)N[C@@H](Cc1ccc(O)cc1)C(=O)N[C@H](C(=O)N[C@@H](CC(=O)O)C(=O)N[C@@H](CC(C)C)C(=O)N[C@@H](CCCCN)C(=O)N[C@@H](CCC(=O)O)C(=O)N[C@@H](CC(C)C)C(=O)O)[C@@H](C)CC", "tested on": "SARS-CoV-2 JN.1 pseudovirus", "assay": "pseudovirus infection, inhibitor, luciferase", "test system": "Caco-2", "setting": "24 h", "endpoint": "IC50", "value": "129 nM"}
{"Structure (SMILES)": "CCCC1c2ccccc2C=NN1C(=O)/C=C/c1cc(Cc2cnc(N)nc2N)cc(OC)c1OC (racemic)", "tested on": "Bacillus anthracis", "test system": "Sterne", "endpoint": "MIC", "value": "1 µg/mL"}
{"Structure (SMILES)": "Cc1ccccc1S(=O)(=O)Nc1cccc(C(=O)NC2CCN(c3ncnc4[nH]cnc34)CC2)c1", "tested on": "SARS-CoV-2", "test system": "Wuhan-Hu-1", "setting": "2.469 µM", "how to read": "relative to: untreated infected cells", "endpoint": "relative infection", "value": "49.3%"}
{"Structure (SMILES)": "CC[C@H](C)[C@H](NC(=O)[C@H](C)NC(=O)[C@H](CCC(=O)O)NC(=O)[C@H](CCC(=O)O)NC(=O)[C@H](CC(C)C)NC(=O)[C@H](CCCCN)NC(=O)[C@H](CCCCN)NC(=O)[C@H](CCSC)NC(=O)[C@H](CCC(=O)O)NC(=O)[C@H](Cc1ccc(O)cc1)NC(=O)[C@H](CCC(=O)O)NC(=O)[C@H](CC(C)C)NC(=O)[C@H](CC(=O)O)NC(=O)[C@H](CC(C)C)NC(=O)[C@H](Cc1ccccc1)NC(=O)[C@H](Cc1ccc(O)cc1)NC(=O)[C@@H](NC(=O)[C@H](CC(N)=O)NC(=O)[C@@H](NC(=O)[C@H](CCC(N)=O)NC(=O)[C@H](CC(=O)O)NC(=O)[C@H](CC(C)C)NC(=O)[C@@H](N)CO)[C@@H](C)CC)C(C)C)C(=O)N[C@@H](CCCCN)C(=O)N[C@@H](CCCCN)C(=O)N[C@@H](CC(C)C)C(=O)N[C@@H](CCC(=O)O)C(=O)N[C@@H](CCC(=O)O)C(=O)N[C@@H](C)C(=O)N[C@@H](Cc1ccc(O)cc1)C(=O)N[C@H](C(=O)N[C@@H](CC(=O)O)C(=O)N[C@@H](CC(C)C)C(=O)N[C@@H](CCCCN)C(=O)N[C@@H](CCC(=O)O)C(=O)N[C@@H](CC(C)C)C(=O)O)[C@@H](C)CC", "tested on": "SARS-CoV-2 Alpha pseudovirus", "assay": "pseudovirus infection, inhibitor, luciferase", "test system": "Caco-2", "setting": "24 h, dual mutations", "endpoint": "IC50", "value": "446 nM"}
{"Structure (SMILES)": "O=S(=O)(c1cccc(F)c1)N1CCCC2(C1)Nc1cccnc1N=C2NC1CCCC1 (centres unmarked)", "tested on": "HEK293", "assay": "cell viability, CellTiter-Glo", "setting": "72 h", "endpoint": "CC50", "value": "> 70000 nM"}
{"Structure (SMILES)": "COc1ccc(S(=O)(=O)Nc2cccc(C(=O)NC3CCN(c4ncnc5[nH]cnc45)CC3)c2)cc1", "tested on": "SARS-CoV-2", "test system": "Wuhan-Hu-1", "setting": "66.67 µM", "how to read": "relative to: untreated infected cells", "endpoint": "relative infection", "value": "20.9%"}
{"Structure (SMILES)": "O=C(O)C(O)=CC(=O)c1cc(Oc2ccccc2)cc(Oc2ccccc2)c1", "tested on": "SARS-CoV-2", "assay": "viral replication", "test system": "VeroE6-TMPRSS2", "endpoint": "EC50", "value": "26000 ± 1700 nM"}
{"note": "A few entries again:"}
{"Structure (SMILES)": "CCOP(=O)(OCC)ON1C(=O)c2cccc3cccc(c23)C1=O", "tested on": "Ache (Rattus norvegicus, UniProt P37136)", "assay": "enzyme activity, inhibitor, discontinuous Ellman", "test system": "rat, postnatal day 12, rat lung homogenate", "setting": "15 min, 37 °C", "endpoint": "IC50", "value": "30 nM"}
{"Structure (SMILES)": "CNC(=O)CC1C(=O)N(C2CCN([C@H]3CC[C@@H](C(C)C)CC3)CC2)c2ccccc21 (some centres unmarked)", "tested on": "OPRL1", "assay": "G protein interaction, BRET", "test system": "HEK293 membranes", "how to read": "relative to: N/OFQ", "endpoint": "fold lower potency", "value": "4 fold"}
